Results pooled from the literature.
Numbered parts are unrelated; each lists some results of a single study. Changes are numbered by the printed parent chain.

Block 1 — method: DHFR PCA, deep sequencing; medium: yeast; added: (+)-ABA 0.032 µM; reference: wild-type fitted maximum; reading: higher = stronger binding
Target: ABI1, truncated, D143A, DHFR fusion (Arabidopsis thaliana)
Setting: methotrexate growth selection, single substitutions
Parent: PYL1, truncated, DHFR fusion (Arabidopsis thaliana); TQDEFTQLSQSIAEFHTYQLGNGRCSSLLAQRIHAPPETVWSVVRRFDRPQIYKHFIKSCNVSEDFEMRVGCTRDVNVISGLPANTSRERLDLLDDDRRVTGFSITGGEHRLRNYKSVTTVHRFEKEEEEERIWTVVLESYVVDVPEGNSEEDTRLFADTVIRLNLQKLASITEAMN
Substitution	relative binding score [%]
L156Y	-3.48
I133C	44.3
G81M	1.3
T135I	-4.65
L28G	3.57
R98I	4.45
Q51W	1.79
T160M	2.56
T101Q	-3.02
A13K	37.3
R99A	0.525
E38L	0.521
R46Y	-5.26
F5M	37

Block 2 — method: aptamer microarray, sandwich; form: DNA with 2'F-ANA; medium: in vitro; tested at: 200 nM; added: Cy3 exosite-II aptamer, 400 nM; reading: higher = stronger binding; strand: GGTTGGTGTGGTTGG
Target: Prothrombin, mature alpha-thrombin (F2, Homo sapiens, UniProt P00734)
Setting: whole 15-mer aptamer, many near background
Modification	mean fluorescence intensity
2'F-ANA at 5 6 8 10 11 14 15	53.6 a.u.
2'F-ANA at 2 3 5 6 7 10 13 14 15	45.1 a.u.
2'F-ANA at 1 2 3 4 6 7 12 14 15	72.3 a.u.
2'F-ANA at 1 3 4 5 6 7 10 13 15	50.8 a.u.
2'F-ANA at 1 3 4 5 6 8 9 11 14	47.5 a.u.
2'F-ANA at 3 4 5 6 9 10 14	49.8 a.u.
2'F-ANA at 1 2 3 4 5 6 10 11 12 13 15	47.7 a.u.
2'F-ANA at 1 4 5 6 9 12 13	72.7 a.u.
2'F-ANA at 2 3 4 9 10 11 12 13 14 15	171 a.u.
2'F-ANA at 4 5 6 8 9 10 13 14 15	110 a.u.
2'F-ANA at 2 3 4 6 10 12 14	165 a.u.
2'F-ANA at 6 7 8 9 10 11 12 13 14 15	104 a.u.
2'F-ANA at 1 2 4 7 8 11	127 a.u.
2'F-ANA at 1 4 5 8 9 10 12 15	55.2 a.u.
2'F-ANA at 1 3 4 6 11 13 14	60.5 a.u.
2'F-ANA at 2 3 4 8 10 13 14 15	167 a.u.
2'F-ANA at 3 7 8 9 12 14 15	784 a.u.
2'F-ANA at 2 3 4 5 6 7 10 14 15	48.3 a.u.
2'F-ANA at 3 5 6 7 9 11 13	136 a.u.
2'F-ANA at 3 5 6 7 10 12	61.4 a.u.
2'F-ANA at 2 4 5 10 11 12 15	83.6 a.u.
2'F-ANA at 1 4 7 10 15	50.7 a.u.
2'F-ANA at 6 9 11 14	156 a.u.
2'F-ANA at 2 4 5 7 8 9 12 14 15	46 a.u.
2'F-ANA at 1 4 10 12 14	94.8 a.u.

Block 3 — method: RNA Bind-n-Seq; form: RNA; medium: in vitro; tested at: 365 nM; reference: no-protein control; reading: higher = stronger binding
Target: RNA binding protein fox-1 homolog 2, RRM domain, GST-SBP tag (RBFOX2, Homo sapiens, UniProt O43251-10, residues 100-194)
Setting: natural RNA segment, single round, ends assumed
Shared flanks, not repeated: GGGAGUUCUACAGUCCGACGAUC … UGGAAUUCUCGGGUGCCAA
Target sequence (chain): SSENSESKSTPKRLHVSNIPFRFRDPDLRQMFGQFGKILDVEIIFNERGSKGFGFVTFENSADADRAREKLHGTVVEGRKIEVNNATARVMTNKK
Strand	RBNS enrichment (R)
GGAGAGAAGUUUGAAGCACAACUCCCUUAAGGUCUCCAAACCAGACGGUGACGCCUGCGGGACCAUCUGGGGCACCUGCUUCCACCCGUCUCUCUGCCCACUCGGGUCUG	0.191
CAGAGAUUCCUGACCACUGAUCAUGCGGCCAGGAAGGGGGACCAAGAGUAAACCCCAUCUUAAUUACAAGAGAAAAUUUUUUUCUUUUUCUCGUGUGUGUGUGUGUGUGU	0.863
AUUUUGAGAUCAGUCUUUAUUAAUAAAACCUGUUCUCUUUAAUCAGCUUAAAAUCCAAAGUGUCAUAUUUACUGGUCCUGGAGACAAACUUGUUCAAAAGAACAUCAACG	0.302
GAGGGAUUUGACCUUGUUCCCAAGGGAUUGAGAGUCUAGUGAGCAGCCCAGGGGCAAAGGCAGUCAACUUGCAUGUGAUACAAGACAGGCCAGGCAGAGCUGGUGUGACU	31.6
UGGGCUCGGGGGUUGGGGGGUGCCGGGGCGAUGCUUCCACCCUGGACUGAGUGUUCGGGGCAGCCUGCUCGGCUGUAUGUUUCUCGCACGCUCACCCGCUUCAGUGCGGC	1.55
GAUUCUAUCCAGCAAGGUCCUGUUUCCAAGAGUAGCCUAUGGAAUCUGAUCAGUUACUUUAAAAAAUGACUUCUUAUUUUUUAAAUGUUUCCACAUUUUUUGCUUGUGGA	0.525
UUUUAAAUGCACUAGGAGCCAACUCUGUCCAUCUGUGAUGGGAUUAGAAAGCCCGGUGUUUUUCUGUGAUAUUAGAUGUCCUCCGAGCACAGCCCACUUGGAUUUGUUUG	0.549
UCUCAUUAACUGACAGUAUGCCCAUUUGUUUUUAUGGCUUUCUUAUCUAAACUGCACUGAUGAACUAGAUUAAAGCCUUGGGAGAUUUAUACUAUAAAUUCAGUGAUGGC	2.73
UCAUUUUGAAACUUAAUGUACUACUUACUGGUACUCUCCCUAUUAAUAUUUGAAGGACCUCAAUGGAAUAAAUUUGAAAAGCUAAAUUAAAAUACAAAAAUUUAAAUCUG	0.641
GAUCUGGGCCUUUGAACAACUGGGGGGCGUUUUCUCCCCCCCAUUGGGACACCAGUCUUCGGUGUGUGGAAUGUGGUAUUUUCCCGCGUGGAGGUGUGCUUUCUCACAAC	0.268
CACUUGAGGGGUCUGGGCAGUCCCUCCUCUCCCCAGUGUCCACAGUCACUGAGCCAGACGGUCGGUUGGAACAUGAGACUCGAGGCUGAGCGUGGAUCUGAACACCACAG	0.717
AGAAAAAAAGCACAAAGUUCUCAGAGCUCUCGAGGAAAGUGGUUGUCCCCGUACCACCAUGCACUGUAAAUAUCCCUCCCCUCUCUCCCUGGUCCCCUCCCCCAUCCCCA	0.901

Block 4 — method: RNA Bind-n-Seq; form: RNA; medium: in vitro; tested at: 100 nM; reference: input RNA pool; reading: higher = stronger binding
Target: RING finger protein unkempt homolog, zinc fingers 1-6, SBP tag (UNK, Homo sapiens, UniProt Q9C0B0, residues 30-357)
Sequence of UniProt Q9C0B0 (30-357, looked up): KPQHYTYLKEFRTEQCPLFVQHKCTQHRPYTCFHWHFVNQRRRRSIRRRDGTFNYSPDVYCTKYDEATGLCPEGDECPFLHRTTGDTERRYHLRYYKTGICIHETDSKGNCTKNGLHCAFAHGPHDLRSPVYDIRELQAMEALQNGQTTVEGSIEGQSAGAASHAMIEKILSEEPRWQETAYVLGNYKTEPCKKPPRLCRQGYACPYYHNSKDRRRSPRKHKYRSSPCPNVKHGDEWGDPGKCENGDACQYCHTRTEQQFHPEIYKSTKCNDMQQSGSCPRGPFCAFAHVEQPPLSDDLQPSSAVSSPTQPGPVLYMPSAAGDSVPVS
Setting: RNA with constant flanks, vertebrate orthologous sites, ends assumed
Shared flanks, not repeated: GGGAGUUCUACAGUCCGACGAUC … CAACAGAGGAUUGAGCAUCA
Strand	bound/input enrichment [ratio]
UACCCGGUACCCCCUAAAACAGAACUUUUUAGGAUUGUGUUGCCACCACUUUUUAAAACUUAGCAAUAUUAAUAUAACACAUGAAUGAAAUUAAUUUUGCUCAUUGUUUUGCGAACCAAA	0.336
CCGAAGGGCCAGAUCCCCUCCCCCCUGCUCCUGCUUCUACCAGCUGGAAGCACAGAAAACUAGAAGUUCACUUAUUUUGUUUUUAAACGAUAUACGUUGAUUUCUUGUAACAUCCAAUAG	0.368
AGUCCCCUGGGCCGGGACAGAUUUUUUUUUAACGUCUUGAAACUUAAAACUCUGUGCUUGUAGGAGACUGUAACCUUUAAUUUUUUUUUUUUUUUUUAAACAAACAACCUCCACCUCCAG	2.24
UUGGGAGCAGUUCUCCAAAUAGAAAUAGUAAUAAAAAAACCAAACAAAAUGAUAUUUGUGUAGACAAAACAGAAUUUAAAUCAUGGAAAGUAAAUGCUGCCAGUAUUCCAGGUCCUAAAG	2.76
UACAAAUGUGUAUCGAAUGCUUGGUGUAACAUUAAACCAUCAUUUAGAAUAGAUGUCGAUUUGUUAUAAUUAAGCUACAAAUAGGUUUCUUUAAACCAGAGAUGCACUGCCCUUGUCUGA	0.268
ACGCUUUGAUAUUAAAUUUGACAUAAAAAGCAGCUGAUUGUAAGCACAACUCUUUCCUCCUAGCCAUUCAAAAAGGUAAAAGACAAAAAAGAAAACCUACUAGUCUUGAACAAACUGUCA	0.569
CUCUAUGGGCCUCGCAGAGUUGAAAUAAUGGAAGAGGAAAGUGAACAGUAAUCUUCAUUUUAGUAUUUAUGCUUAGGUGUGAAAUAAAUGUUAUUUGUUGAUCAUUUCUAUAACCCAGAG	0.574
AAAAAACCCCGAUUUUAGAUAUUUAGGCUUUCAUUCUAGUUGGUUUUGUCUUUUCUUGUUUAGAUACCACUUAAAUUCUUGGCAUUUUAGUAAGCAAGCUACCUUUUUAUGGAUGUUAGC	1.12
AAAUUUAUUUUAUGCCCUGGACUCCCUACCGCACCGAUACUUUGAUAGAAUAUGCUUCUAUAGAAGACUUUCAAAACAGCCGCCAGACAACAACAUACAAACUUCCGAAUCGAGUAGAUG	1.23
AAUCUCAUGUAGUUUGUUUUUAAUUUCAAGCAAAUUGUACUUGAAUGUGUCCCAUUUUGUUAGCACACCUAGACUUGCUGUAACUGUACUCAUGUCCCAGUAUGUACGUUCUUUCUAUGA	0.78
GCCAAACAUUUUGACUUUUUUUUUUUCUUUUUCUUUUUCUUUUUCUUUGUUUGGUAGGUCUUGUUCUGUAUACCUGCACCAUUUUAUGUCUCCUUCACUGAAGGGCUAGAGUUUAACUUU	0.598

Block 5 — target: FOSB, bZIP domain (human); method: DHFR protein complementation; medium: yeast; reference: wild-type JUN-FOS pair; reading: higher = stronger binding
Setting: single substitutions, most at no-binding floor
Parent: JUN, bZIP domain (human); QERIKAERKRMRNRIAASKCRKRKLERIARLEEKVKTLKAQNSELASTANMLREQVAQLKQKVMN; partner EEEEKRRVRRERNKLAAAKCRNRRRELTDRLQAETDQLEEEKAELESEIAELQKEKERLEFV
Substitution	binding fitness [natural log]
K36S	-0.0797
R30Q	0.0236
S47C	-0.108
L52K	-0.968
S47L	-0.0798
K39T	-0.294
A46W	-0.303
L45R	-0.64
S43E	-0.0074
E44W	-0.41

Block 6 — target: CCNA2, cyclin fold, Cln2 fusion (human); method: yeast growth competition, sequencing; medium: yeast; setting: strong parent motif; reference: not given; reading: higher = stronger binding
Parent: WEE1 docking peptide (human); CTLRQKLIFSPCS
Substitution	normalised enrichment score
S10A	1.19
T2A	1.33
L7A	0.364
L3A	3.49
I8A	1.26
F9A	0.147
C12A	1.17
